Measured values of several laboratories.
Protocols differ between the studies behind these lines. ± gives the spread as reported.
Organism: Acinetobacter baumannii

| Compound | test | system | setting | scale | MIC |
| --- | --- | --- | --- | --- | --- |
| CC1(C)SC2C(NC(=O)C(NC(=O)C3=C(O)CNC3=O)c3ccccc3)C(=O)N2C1C(=O)O (stereo not shown) | microbial growth, broth dilution | ATCC19606 |  |  | 50 µg/mL |
| CCOC(=O)c1c(N)csc1-c1cn(-c2ccccc2)nc1-c1ccc(C)cc1 | broth microdilution | clinical urinary isolate | compound gamma-irradiated 20 kGy |  | 0.124 ± 0.5 µg/mL |
| CCn1cc(C(=O)NCCNCCO)c(=O)c2cc(OC)c(OCc3cc(F)cc(F)c3)cc21 |  | ATCC 19606 |  | ≥80% growth inhibition | < 0.25 µg/mL |
| CCCCCCCC(=O)N[C@@H](CCN)C(=O)N[C@@H](CCN)C(=O)N[C@@H](CCN)C(=O)N[C@H](Cc1ccccc1)C(=O)N[C@@H](CC(C)C)C(=O)N[C@@H](CCN)C(=O)N[C@@H](C(=O)N[C@@H](CC(C)C)C(=O)N[C@@H](CCN)C(N)=O)C(C)C | checkerboard, measured: rifampicin | ATCC 19606 | sensitization to antibiotics, together with: compound at 2 µg/mL |  | 0.0312 to 0.0625 µg/mL |
| CC1(C)SC2C(NC(=O)C(NC(=O)C3=C(O)C(Cc4ccc(F)cc4)NC3=O)c3ccccc3)C(=O)N2C1C(=O)O (stereo not shown) | microbial growth, broth dilution | ATCC19606 |  |  | 25 µg/mL |
| Cc1c(NC(=O)CC2=NC(=O)CS2)c(=O)n(-c2ccccc2)n1C | microbial growth, broth dilution |  |  |  | 0.45 µg/mL |
| CCCCCCCCCC(=O)N[C@@H](CCN)C(=O)N[C@H](C(=O)N[C@H](C(=O)N[C@H](CC(C)C)C(=O)N[C@@H](CC(C)C)C(=O)N[C@@H](CCN)C(=O)N[C@@H](C(=O)N[C@@H](CC(C)C)C(=O)N[C@@H](CO)C(N)=O)C(C)C)[C@@H](C)O)[C@@H](C)CC | checkerboard, measured: rifampicin | ATCC 19606 | sensitization to antibiotics, together with: compound at 2 µg/mL |  | > 0.125 µg/mL |
| CC(C)C1NC(=O)C(C(=O)NC(C(=O)NC2C(=O)N3C2SC(C)(C)C3C(=O)O)c2ccccc2)=C1O (stereo not shown) | microbial growth, broth dilution | ATCC19606 |  |  | 100 µg/mL |
| O=C(O)c1cn(C2CC2)c2cc(N3CCNCC3)c(F)cc2c1=O | microbial growth, broth dilution | ATCC19606 DSM30007 | 20 h |  | 2.3 µM |
| CC[C@H](C)[C@H](NC(=O)[C@H](CCN)NC(=O)[C@@H](N)CC1CCCCC1)C(=O)N[C@@H](CCN)C(=O)N[C@H](Cc1ccccc1)C(=O)N[C@@H](CC(C)C)C(=O)N[C@@H](CCN)C(=O)N[C@@H](C(=O)N[C@@H](CC(C)C)C(=O)N[C@@H](CO)C(N)=O)C(C)C | checkerboard, measured: rifampicin | ATCC 19606 | sensitization to antibiotics, together with: compound at 2 µg/mL |  | 0.0039 to 0.0078 µg/mL |
| CC(C)(S)C(NC[C@H](NC[C@H](N)C(=O)O)C(=O)O)C(=O)O (stereo in doubt) | broth microdilution | ATCC 17978 expressing NDM-1 |  |  | 16 µg/mL |
| CCCCCC(=O)N[C@@H](CCN)C(=O)N[C@H](C(=O)N[C@@H](CCN)C(=O)N[C@H](Cc1ccccc1)C(=O)N[C@@H](CC(C)C)C(=O)N[C@@H](CCN)C(=O)N[C@@H](C(=O)N[C@@H](CC(C)C)C(=O)N[C@@H](CO)C(N)=O)C(C)C)[C@@H](C)CC | checkerboard, measured: rifampicin | ATCC 19606 | sensitization to antibiotics, together with: compound at 2 µg/mL |  | 0.0078 to 0.0156 µg/mL |
| CC1(C)SC2C(NC(=O)C(NC(=O)C3=C(O)C(Cc4ccco4)NC3=O)c3ccccc3)C(=O)N2C1C(=O)O (stereo not shown) | microbial growth, broth dilution | ATCC19606 |  |  | 50 µg/mL |

A few entries again:
| Compound | test | system | setting | scale | MIC |
| --- | --- | --- | --- | --- | --- |
| CC1(C)SC2C(NC(=O)C(NC(=O)C3=C(O)CNC3=O)c3ccccc3)C(=O)N2C1C(=O)O (stereo not shown) | microbial growth, broth dilution | ATCC19606 |  |  | 50 µg/mL |
